Results collected from several papers.
Protocols differ between the studies behind these lines. ± gives the spread as reported.

COc1cc2c(cc1C)NC(=O)C2=Cc1c(Cl)[nH]c2c1ccc1ccccc12 — TGI (colon cancer subpanel of NCI-60; 48 h): 2880 nM
N[C@H](CSC(F)(F)[18F])C(=O)O — protein incorporation (C6; concentration not given, 30 min): ~5%
COc1ccc(CN(C(=O)c2sc3ccccc3c2Cl)C2CCC(N)CC2)cc1-c1ccc(C#N)cc1 (centres unmarked) — cell proliferation (rat cerebellar granule neuron precursors; [3H]-thymidine incorporation; 5 µM; reference: Hh protein 50 nM): ~50%
CN1CCN(C(=O)N(CCCCCCC(=O)NO)c2ccc(-c3ccc4cnn(C)c4c3)cc2)CC1 — sub-G1 cells (MM1.S and RPMI-8226; propidium iodide flow cytometry; concentration not given, 24 h): increased
CC1(C)OC(=O)C[C@H](O)[C@]2(C)[C@H]3CC[C@@]4(C)[C@H](c5ccoc5)OC(=O)[C@H]5O[C@]54[C@]3(C)C(=O)C[C@@H]12 — combination index (COLO 320 (ABCB1-overexpressing, multidrug-resistant); cell growth; 200 µM starting, CI at ED50, with: doxorubicin, ratio 92.8:1): 0.67
CN1CCN(c2ccc3nc(-c4cccc(N5CCc6cc(Cl)ccc6C5)c4)[nH]c3c2)CC1 — EC50 (HT-22; protection from ferroptosis, CCK-8 viability; 24 h, with: 1 µM erastin): 510 nM
CC(C)CC(CC(C)C)NC(=O)[C@H](Cc1c[nH]cn1)NC(=O)CNC(=O)[C@@H](NC(=O)[C@H](C)NC(=O)[C@H](Cc1c[nH]c2ccccc12)NC(=O)[C@H](CCC(N)=O)NC(=O)[C@@H](Cc1ccccc1)NC(=O)COCC(=O)Nc1ccc(CNC(=O)CN2CCN(CC(=O)O)CCN(CC(=O)O)CCN(CC(=O)O)CC2)cc1)C(C)C [lutetium-177 labelled] — cell density (PC-3, no chemotherapy pretreatment; SRB assay after 6 days; 50 MBq, 1 h, 37 °C; reference: medium-treated): 76.9 ± 18.3%
CC(=O)OC[C@H]1O[C@@H](Sc2sc(C(=O)c3ccc(Br)cc3)c(N)c2-c2nc3ccccc3s2)[C@H](OC(C)=O)[C@@H](OC(C)=O)[C@H]1OC(C)=O — growth (EKVX; SRB; 10 µM, 48 h; reference: untreated): 80.5%
COc1cc(CNC(=O)C[C@H](C)CCC=C(C)C)ccc1OCc1cn(-c2ccccc2F)nn1 — growth percent (MDA-MB-435 melanoma cells; SRB; 10 µM, 48 h): 100%
CCOC(=O)c1nc2cc(Cl)c(Cl)cc2nc1N1CCN(C(=O)Nc2ccc(N3CCNCC3)cc2)CC1 — NRF2 target gene mRNA level (RAW264.7; qRT-PCR; concentration not given, with or without LPS; reference: vehicle): increased
COc1cc(CNC(=O)C[C@H](C)CCC=C(C)C)ccc1OCc1cn(-c2ccc(Br)cc2)nn1 — growth percent (MDA-MB-435 melanoma cells; SRB; 10 µM, 48 h): 98.3%
CC(=O)O[C@@H]1CC[C@@]2(C)C(CC[C@]3(C)C2C(=O)C=C2C4[C@@H](C)[C@H](C)CC[C@]4(C)CC[C@]23C)[C@@]1(C)C(=O)O[C@@H]1C[C@H](C)CC[C@H]1C(C)C (some centres unmarked) — inhibition (RAW264.7; NO release, inhibitor, Griess; 10 µM, 24 h, LPS-stimulated): 82.5%
COc1ccc(S(=O)(=O)N2CCc3ccccc3C2)cc1N1CCN(C(=O)c2ccc(F)cc2C(F)(F)F)CC1 — TH-positive neuron count (mouse midbrain dopamine neurons; 75 nM, 5 days): 356 ± 36.7
C=C(CC)C(=O)c1ccc(OCC(=O)NCCNC(=O)COc2ccc(C(=O)C(=C)CC)c(Cl)c2Cl)c(Cl)c1Cl — apoptosis increase (SGC-7901/DDP cisplatin-resistant; 2.0 µM, with: cisplatin 2 µM; reference: compound alone corrected): ~4 fold
COc1cc(CN2CCN(c3ccccc3Cl)CC2)c2cc3[n+](cc2c1O)CCc1cc2c(cc1-3)OCO2 — therapeutic index (HeLa and MDCK; SRB; 48 h; reference: CC50 MDCK over IC50 HeLa): 27.3
CC(C)Cc1ccc(C(C)C(=O)NN=Cc2ccc(OCC(=O)NN=Cc3cccc([N+](=O)[O-])c3)cc2)cc1 (centres unmarked) — viability (U87 MG; MTT; 40 µM, 48 h): 75.8%
COc1cc(CNC(=O)C[C@H](C)CCC=C(C)C)ccc1OCc1cn(-c2ccccc2)nn1 — growth percent (Hs-578T breast cancer cells; SRB; 10 µM, 48 h): 100%
CC(=O)O[C@@H]1CC[C@@]2(C)C(CC[C@]3(C)C2C(=O)C=C2C4[C@@H](C)[C@H](C)CC[C@]4(C)CC[C@]23C)[C@@]1(C)C(=O)OCc1cn(CC(=O)OC2CC(C)CCC2C(C)C)nn1 (some centres unmarked) — inhibition (RAW264.7; NO release, inhibitor, Griess; 10 µM, 24 h, LPS-stimulated): 88.3%
COc1cc2c(OC3OCC(OC)C(OC)C3OC(=O)c3ccc(Br)cc3)c3c(c(-c4ccc5c(c4)OCO5)c2cc1OC)C(=O)OC3 (centres unmarked) — mRNA level (CAL-27; RT-qPCR, item: CTSD; concentration not given, 72 h): decreased
COc1cc(CNC(=O)C[C@H](C)CCC=C(C)C)ccc1OCc1cn(-c2cccc(Cl)c2)nn1 — growth percent (T47D breast cancer cells; SRB; 10 µM, 48 h): 58.6%
CCN(CC)CC(=O)Nc1cccc(-n2cc(-c3ccc4ccc(-c5cn(-c6cccc(NC(=O)CN(CC)CC)c6)nn5)cc4c3)nn2)c1 — HIF-1β protein level (RCC4 and 786-0; Western blot; concentration not given): no effect
CCC[C@H]1CC[C@H](c2ccc(NC(=S)NC[C@@H]3[C@@H](O)[C@@H](O)[C@H]4[C@H](O)CCCN43)cc2)CC1 — ConA binding to cell surface (Huh-7; fluorescent lectin imaging; 10 µM, 48 h): increased
C/C=C(/NC(=O)CCCCCCC)C(=O)N/C(=C/C)C(=O)N[C@H](CC(C)C)C(=O)N[C@@H](CC(C)C)C(=O)Nc1ccc(C(=O)N[C@H](C(=O)O)[C@@H](C)O)cc1 — inhibition (RAW264.7; NO release, inhibitor, Griess; 20 µM, 24 h, LPS-stimulated): 66.4%
CC(C)Cc1ccc(C(C)C(=O)N/N=C/c2ccc(OCC(=O)N/N=C/c3c(O)ccc4ccccc34)cc2)cc1 (centres unmarked) — viability (U87 MG; MTT; 10 µM, 48 h): 121%
COc1cc(CN2CCN(c3ccc(OC(F)(F)F)cc3)CC2)c2cc3[n+](cc2c1O)CCc1cc2c(cc1-3)OCO2 — therapeutic index (HeLa and MDCK; SRB; 48 h; reference: CC50 MDCK over IC50 HeLa): 28.2
CC/C=C\C/C=C\C/C=C\C/C=C\C/C=C\C/C=C\CCC(=O)Nc1ccn(C2OC(CO)C(O)C2(F)F)c(=O)n1 (centres unmarked) — GI50 (RXF 393; cell growth or viability, SRB): 140 nM
CC(CCC(=O)NCc1ccc(C(=O)NO)cc1)C1CCC2C3C(O)CC4CC(O)CCC4(C)C3CCC12C (centres unmarked) — primary cilium length (normal cholangiocytes (human); 2 µM): no effect
COc1cc(CNC(=O)C[C@H](C)CCC=C(C)C)ccc1OCc1cn(-c2ccc(C#N)cc2)nn1 — growth percent (T47D breast cancer cells; SRB; 10 µM, 48 h): 36%
Cc1nn(-c2ccc(S(=O)(=O)N[C@H](CO)CC(C)C)cc2)c2nn3nnnc3nc12 — tail DNA (HT-29; DNA damage, alkaline comet; 2 µM, 24 h): 24.1 ± 2.83%
CC(C)=CCc1c(OCC2OC2(C)C)ccc2ccc(=O)oc12 (centres unmarked) — combination index (COLO 320 (ABCB1-overexpressing, multidrug-resistant); cell growth; 150 µM starting, CI at ED50, with: doxorubicin, ratio 139.36:1): 0.58
COc1cc(CNC(=O)C[C@H](C)CCC=C(C)C)ccc1OCc1cn(-c2ccccc2[N+](=O)[O-])nn1 — growth percent (ACHN; SRB; 10 µM, 48 h): 80.8%
Cc1c2ccnc(C(=O)N[C@H](C)CN(C)C)c2cc2c3cc(OCCCN4CCN(C)CC4)ccc3n(C)c12 — C9orf72 total transcript level (healthy donor LCLs, iPSCs or iPSNs; no effect, qRT-PCR, item: all C9orf72 transcripts; concentration not given): no effect
[Cl-].[Cl-].[Ru+2].c1ccc(-c2ccnc3c2ccc2c(-c4ccccc4)ccnc23)cc1.c1cnc2c(c1)ccc1cccnc12.c1cnc2c(c1)ccc1cccnc12 — maximal respiration reduction (A549; Seahorse Mito Stress Test; concentration not given, with: 450 nm light 29.1 J/cm2; reference: vehicle): ≥ 90%
Nc1nc2cc(CC[C@H]3C[C@@H](n4ccc5c(N)ncnc54)[C@H](O)[C@@H]3O)ccc2cc1Br — SmD1/3 dimethylation reduction (COLO 699; item: SmD1/3-Me2; 10 nM, 72 h): > 80%
CC(C)Cc1ccc(C(C)C(=O)N/N=C/c2ccc(OCC(=O)N/N=C/c3ccc([N+](=O)[O-])cc3)cc2)cc1 (centres unmarked) — viability (U87 MG; MTT; 80 µM, 48 h): 77.4%
COCCO[C@H]1CC[C@H](Nc2cc(=O)n(C)c3ccc(-c4cncs4)cc23)CC1 — IFN-γ level (PBMC; ELISA; 10 µM, 288 h): 21.1%
COc1cc(CNC(=O)C[C@H](C)CCC=C(C)C)ccc1OCc1cn(-c2ccccc2Cl)nn1 — growth percent (EKVX; SRB; 10 µM, 48 h): 54%
COc1cccc(/C=N/NC(=O)COc2ccc(/C=N/NC(=O)C(C)c3ccc(CC(C)C)cc3)cc2)c1O (centres unmarked) — viability (U87 MG; MTT; 40 µM, 48 h): 52%
O=C1c2c(O)cc(O)cc2-c2c(-c3ccc(O)cc3)oc3cc(O)cc1c23 — mRNA level (T47D ESR1 Y537S; RNA-seq, item: GREB1, PGR, MYC; 10 µM, 24 h): decreased
CC(C)Cc1ccc(C(C)C(=O)N/N=C/c2ccc(OCC(=O)N/N=C/c3cccc(O)c3)cc2)cc1 (centres unmarked) — viability (U87 MG; MTT; 80 µM, 48 h): 107%
Cc1cc(Nc2ccc(NC(=O)c3ccc(NC(=O)c4ccncc4)cc3)cc2)nc(N)n1 — reporter reactivation (KG-1 with methylated CMV-luciferase; luciferase reporter gene; 0.5 µM, 24 h; reference: untreated): 1 ± 0.1 fold

Repeated from above:
COc1cc(CNC(=O)C[C@H](C)CCC=C(C)C)ccc1OCc1cn(-c2cccc(Cl)c2)nn1 — growth percent (T47D breast cancer cells; SRB; 10 µM, 48 h): 58.6%
COc1cc(CNC(=O)C[C@H](C)CCC=C(C)C)ccc1OCc1cn(-c2ccccc2[N+](=O)[O-])nn1 — growth percent (ACHN; SRB; 10 µM, 48 h): 80.8%
CC1(C)OC(=O)C[C@H](O)[C@]2(C)[C@H]3CC[C@@]4(C)[C@H](c5ccoc5)OC(=O)[C@H]5O[C@]54[C@]3(C)C(=O)C[C@@H]12 — combination index (COLO 320 (ABCB1-overexpressing, multidrug-resistant); cell growth; 200 µM starting, CI at ED50, with: doxorubicin, ratio 92.8:1): 0.67
